Measurements pooled from the literature.
Several values in a cell are separate wells, animals, samples, runs or records. ± gives the spread as reported.

For `Cc1ccc(CNC(=O)Cn2cc(CSc3nc4ccccc4[nH]3)nn2)cc1`, the cytotoxicity was 65.2% (MDA-MB-231; MTT; 7.81 ppm).
For `O=C(/C=C/C=C/C=C/C1CCCCC1)NC1=C[C@@](O)(/C=C/C=C/C=C/C(=O)NC2=C(O)CCC2=O)[C@@H]2O[C@@H]2C1=O`, the GI50 was 17.6 µM (CAL-27; cell growth, CellTiter-Glo; 78 h).
For `CCn1cc(-c2cc(Cn3ccoc3=N)cc3c2CCN([C@@H](C)c2cc(OC)ccn2)C3=O)c(C(F)(F)F)n1`, the EC50 was 482 nM (COLO-741; cell growth, inhibitor; 120 h).
The ΔPSI of `Clc1nc(NCc2ccco2)c2[nH]cnc2n1` is reported as -0.294 (iPSC-derived cardiomyocytes; RNA-seq, refers to: ASPG chr14 exon ending 104111601; unit not given; relative to: DMSO minus compound).
`COc1cc(/C=C/C(=O)N2CCC=CC2=O)cc(OC)c1OC` has a mRNA level of 95.9 ± 6.6% (MDA-MB-468; qRT-PCR, refers to: Skp1; 30 µM, 6 h; relative to: time zero).
For `CCCCCCCCCCCCCCCCCCOc1cccc(CC(=O)OCC[N+]2(C)CCOCC2)c1`, “mean growth inhibition” read 7.6% (NSCLC panel (nine cell lines); 10 µM).
`O=C(C[C@@H](C(F)F)n1ccc(F)n1)N1CCC(O)(Cn2cnc3c(cnn3-c3ccc(F)cc3)c2=O)CC1` has a resistance factor of over 376 (CAPAN-1 resistant to USP7-797; SRB viability; relative to: IC50 resistant over parental).
`C[C@H](Nc1ccc2c(c1)OCCn1cc(N3C(=O)OC[C@H]3C(F)F)nc1-2)C(N)=O` — result for “Hill coefficient GR curve”: 0.893 (MFM-223; cell growth, CellTiter-Glo; 120 h).
The cell growth of `CC(C)(C)c1cnc(CSc2cnc(NC(=O)C3CCNCC3)s2)o1` is reported as 90% (SNU-1040; 0.33 µM, 72 h, 100% DMSO; relative to: vehicle).
`C[C@H]1[C@@H](O)O[C@@H]2O[C@@]3(C)CC[C@H]4[C@H](C)CC[C@@H]1[C@@]24OO3` has a viable cells of 90% (KCL-22; annexin V/PI flow cytometry, refers to: annexin V-/PI-; 3.2 µM, 24 h).
For `O=c1ccn([C@@H]2O[C@H](CO)[C@@H](O)[C@H]2O)c(=O)[nH]1`, “T cell proliferation” read 111% and 104% and 109% and 99.4% (activated human T cells; concentration not given, together with: adenosine; relative to: DMSO).
For `C=CCOc1c(C)c(O)c(C(=O)/C=C/c2ccccc2)c(OC)c1C`, the selectivity index was 1.12 (SH-SY5Y; SRB; relative to: normal over SH-SY5Y IC50).
`CSCC[C@H](NC(=O)[C@H](Cc1ccc(OS(=O)(=O)O)cc1)NC(=O)[C@@H](N)CC(=O)O)C(=O)NCC(=O)N[C@@H](Cc1c[nH]c2ccccc12)C(=O)N[C@@H](CCSC)C(=O)N[C@@H](CC(=O)O)C(=O)N[C@@H](Cc1ccccc1)C(N)=O` has a calcium response of 0.0927 a.u. and 0.0248 a.u. (HEK293T control virus; agonist, calcium mobilization; 0.00512 nM, no receptor expressed; higher = more calcium release).
Under “log2 fold change”, `Cn1cc(-c2ccc(-c3cncc(Cl)c3N3CCC4(CCNC4=O)CC3)cc2)cn1` is recorded as -3.39 (COLO 205; gene expression, microarray, refers to: HIST4H4 mRNA; concentration not given, 2 h; relative to: untreated cells).
`Nc1cccc2c1CN(C1CCC(=O)NC1=O)C2=O` (stereo not drawn) has a viability of 55% (bone marrow CD138+ myeloma cells; XTT; 1.4 µM, phenol red-free RPMI).
For `COc1cnc2cccc(N3CCc4c(cc(Cn5ccnc5C)cc4-c4cn(C)nc4C(F)(F)F)C3=O)c2c1`, the EC50 was over 30000 nM (BICR16; cell growth; 120 h).
`CCCCN1C[C@H](O)[C@@H](O)[C@@H](O)[C@H]1CO` has an IC50 of 43.4 µM (sample A patient fibroblasts; GlcCer level lowering, LC-MS/MS, refers to: GlcCer d18:1/24:1; 216 h).
For `Cc1nc(Nc2ncc(C(=O)Nc3c(C)cccc3Cl)s2)cc(N2CC[C@H](O)C2)n1`, the inhibition was 74% (A3/KAW; cell proliferation, CellTiter-Glo; 10 µM, 72 h).

For quick reference, copied from above:
For `CCn1cc(-c2cc(Cn3ccoc3=N)cc3c2CCN([C@@H](C)c2cc(OC)ccn2)C3=O)c(C(F)(F)F)n1`, the EC50 was 482 nM (COLO-741; cell growth, inhibitor; 120 h).
